Experimental data collected from several papers.
Protocols differ between the studies behind these lines. Values joined by “and” are separate records of one study, mostly repeats; a detail may differ. Numbers after ± are the reported error. In brackets after ≈: the same amount, converted by molar mass.
KCNH2: Voltage-gated inwardly rectifying potassium channel KCNH2 (KCNH2, Homo sapiens, UniProt Q12809)
UniProt Q12809, sequence (whole entry, looked up): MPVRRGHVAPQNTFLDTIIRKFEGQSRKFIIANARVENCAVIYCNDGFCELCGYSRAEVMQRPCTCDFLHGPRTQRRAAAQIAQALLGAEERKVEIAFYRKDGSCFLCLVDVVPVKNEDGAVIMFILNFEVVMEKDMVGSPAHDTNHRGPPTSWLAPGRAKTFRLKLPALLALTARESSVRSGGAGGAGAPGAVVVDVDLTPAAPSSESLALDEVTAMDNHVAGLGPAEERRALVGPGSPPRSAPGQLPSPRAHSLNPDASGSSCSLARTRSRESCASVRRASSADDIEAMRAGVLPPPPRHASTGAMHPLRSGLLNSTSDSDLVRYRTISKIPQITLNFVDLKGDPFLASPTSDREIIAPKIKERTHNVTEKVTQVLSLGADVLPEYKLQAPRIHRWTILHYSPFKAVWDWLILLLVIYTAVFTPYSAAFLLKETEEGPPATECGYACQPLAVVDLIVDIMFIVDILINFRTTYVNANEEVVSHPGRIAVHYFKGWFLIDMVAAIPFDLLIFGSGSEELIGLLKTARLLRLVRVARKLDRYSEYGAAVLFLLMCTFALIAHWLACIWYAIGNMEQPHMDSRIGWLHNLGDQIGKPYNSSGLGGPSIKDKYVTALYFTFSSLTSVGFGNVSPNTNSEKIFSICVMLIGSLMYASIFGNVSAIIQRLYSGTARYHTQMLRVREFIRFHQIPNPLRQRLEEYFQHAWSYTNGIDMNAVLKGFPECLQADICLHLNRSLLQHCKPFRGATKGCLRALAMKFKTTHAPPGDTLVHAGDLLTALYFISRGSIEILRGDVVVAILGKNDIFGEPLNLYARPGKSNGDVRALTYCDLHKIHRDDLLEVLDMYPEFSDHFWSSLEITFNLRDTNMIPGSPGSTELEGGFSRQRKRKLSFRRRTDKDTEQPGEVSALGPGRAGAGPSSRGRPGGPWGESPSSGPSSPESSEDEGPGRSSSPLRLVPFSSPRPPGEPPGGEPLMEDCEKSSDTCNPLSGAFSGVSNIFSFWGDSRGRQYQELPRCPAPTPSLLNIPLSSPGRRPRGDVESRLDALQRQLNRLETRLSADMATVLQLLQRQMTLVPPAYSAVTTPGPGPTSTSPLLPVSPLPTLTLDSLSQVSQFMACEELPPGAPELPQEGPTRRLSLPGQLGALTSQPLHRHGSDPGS
UniProt P78329, sequence (whole entry, looked up): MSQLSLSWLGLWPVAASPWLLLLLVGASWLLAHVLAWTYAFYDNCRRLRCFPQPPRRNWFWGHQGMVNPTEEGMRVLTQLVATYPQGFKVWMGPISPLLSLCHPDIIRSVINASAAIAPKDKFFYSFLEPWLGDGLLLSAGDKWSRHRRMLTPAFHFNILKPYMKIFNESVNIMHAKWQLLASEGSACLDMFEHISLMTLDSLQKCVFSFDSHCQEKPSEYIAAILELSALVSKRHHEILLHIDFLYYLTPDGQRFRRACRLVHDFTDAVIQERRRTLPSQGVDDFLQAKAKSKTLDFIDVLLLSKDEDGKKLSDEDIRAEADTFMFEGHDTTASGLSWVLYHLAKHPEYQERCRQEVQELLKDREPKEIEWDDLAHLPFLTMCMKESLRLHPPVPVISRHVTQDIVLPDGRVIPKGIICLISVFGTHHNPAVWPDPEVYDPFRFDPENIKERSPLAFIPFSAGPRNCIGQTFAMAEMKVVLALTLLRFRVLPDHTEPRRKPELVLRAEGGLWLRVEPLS

O=S(=O)(c1ccc(-c2ccc3ncnc(Nc4ccc(OCc5cccc(F)c5)c(Cl)c4)c3c2)cc1)N1CCNCC1
selectivity ratio (Trypanosoma cruzi; NIH 3T3; relative to: NIH 3T3 TC50 over T. cruzi EC50): 53.1

Cc1cc(-c2ccc3ccccc3c2)nnc1NCCN1CCN(C)CC1
t1/2 (Cytochrome P450 4F2 (Homo sapiens, UniProt P78329); substrate; recombinant enzyme; 1000 nM): > 30 min

O=C(O)CCCOc1ccc(O)cc1-c1cc(-c2ccccc2C(F)(F)F)n(-c2ccccc2)n1
mutagenicity (Salmonella typhimurium; Ames test; TA98, TA100, TA1535, TA1537; 78.1 to 5000 µg/plate, without S9): negative

Cc1nc2cccc(OCC(C)(C)C(=O)NC(C)C)c2c(N)c1C(=O)[O-].[Na+]
revertant colonies (Salmonella typhimurium; Ames preincubation; TA1535; 0.80 mg/plate, added: without rat liver S9): 17 ± 8 colonies/plate

CNC(=O)CC1CN(C(=O)c2ccc(C(F)(F)F)cn2)CCN1C(=O)c1cccnn1 (stereo not drawn)
viability (Huh-7-ACE2; CellTiter-Glo; 0.0488 µM, 48 h, unit not given; relative to: DMSO): 0.944 and 0.898 and 0.786

COc1cc2c(cc1NC(=O)c1cncn1C)C[C@H]1[C@H]3CCCC[C@@]23CCN1C
inhibition (KCNH2; ligand displacement, radioligand; 1 µM): 3.4%

Cc1nc(=O)c2cc(CN(C)c3ccc(C(=O)NCc4ccccn4)s3)ccc2[nH]1
uptake from medium (Mycobacterium tuberculosis; H37Rv; 10 µM, 24 h): 55.1%

Cc1cc(/C=C/C#N)cc(C)c1Oc1nc(NC2CCN(Cc3ccc(S(C)(=O)=O)cc3)CC2)nc2ncccc12
selectivity index (HIV-1; MT4, IIIB wild type; relative to: CC50 over EC50): 15000

CCCCN(C=O)c1c(CC)nc2ccc(C(=O)N(C)Cc3ccco3)cn12
cell density reduction (SH-SY5Y; sulforhodamine B; 100 µM, 72 h): 65.9%

O=C(NS(=O)(=O)c1cccs1)c1cc2ccccc2n1Cc1ccc(Br)c2ccccc12
body weight (KM mouse, chronic hyperuricaemia model; dose not given, day 2): 26.5 g

NC[C@]1(CC(=O)O)CC[C@@H]([18F])CC1
initial peak SUV (PET; rhesus monkey, brain; intravenous, 3.8 min, baseline scan): 0.4

COc1ccc2c3c1O[C@H]1[C@H](O)CC[C@@]4(O)[C@@H](C2)N(C)CC[C@]314
logP (1 h): 1.21

CC[C@H](C)[C@H](NC(=O)[C@H](CCCCN)NC(=O)[C@H](CCCCN)NC(=O)[C@H](Cc1ccccc1)NC(=O)[C@H](Cc1ccccc1)NC(=O)[C@H](CCCCN)NC(=O)[C@H](CCCCN)NC(=O)[C@H](Cc1ccccc1)NC(=O)[C@H](CCCNC(=N)N)NC(=O)[C@@H](N)CCCCN)C(=O)N[C@@H](CCCCN)C(=O)N[C@@H](CCCCN)C(=O)N[C@@H](CO)C(=O)N[C@H](C(=O)N[C@@H](CCCCN)C(=O)N[C@@H](CCCCN)C(=O)N[C@@H](CCCNC(=N)N)C(=O)N[C@H](C(=O)N[C@@H](CCCCN)C(=O)N[C@@H](CCCCN)C(=O)N[C@@H](CC(C)C)C(=O)N[C@@H](Cc1ccccc1)C(=O)N[C@@H](CCCCN)C(=O)N[C@@H](CCCCN)C(=O)N1CCC[C@H]1C(=O)N[C@@H](CCCNC(=N)N)C(=O)N[C@H](C(=O)N[C@H](C(=O)N1CCC[C@H]1C(=O)N[C@H](C(=O)N[C@@H](CO)C(=O)N[C@H](C(=O)N1CCC[C@H]1C(=O)N[C@@H](Cc1ccccc1)C(=O)O)[C@@H](C)CC)[C@@H](C)CC)[C@@H](C)CC)C(C)C)C(C)C)C(C)C
MIC (Pseudomonas aeruginosa; P1, mouse serum; 2 h, 37 °C): 16 µg/mL (≈ 3.79 µM)

CC(=O)NCCCC[C@@H]1NC(=O)[C@H](Cc2c[nH]c3c(C)cccc23)NC(=O)[C@H]([C@@H](C)O)NC(=O)[C@H](CC(N)=O)NC(=O)[C@@H](NC(C)=O)C(C)(C)SSC(C)(C)[C@@H](C(=O)N[C@@H](Cc2ccc(OCCN)cc2)C(=O)N[C@@H](Cc2ccc3ccccc3c2)C(=O)NC2(C(=O)N[C@@H](CCC(=O)O)C(=O)N[C@@H](CC(N)=O)C(=O)N[C@@H](Cc3cccnc3)C(=O)N(C)CC(N)=O)CCOCC2)NC1=O
protein binding (human alpha-1-acid glycoprotein 0.14%; equilibrium dialysis; 1 µM): 8.49 ± 1.69%

O=C1NC2(CC2)COc2ncc(F)cc2[C@H]2COCCN2c2ccn3ncc1c3n2
organ-to-body weight ratio (Sprague-Dawley rat, male, brain; oral, 2.5 mg/kg/day, 4 weeks dosing, end of recovery): 0.426 ± 0.037%

CC1(F)CN(C(=O)Cn2c(=O)c(C(=O)NCc3ccc(Cl)cc3)cc3nc(N4CCN(CCN)C4=O)cnc32)C1
selectivity index (herpes simplex virus 1; cytopathic effect; relative to: CC50 over EC50): > 21.4

CNC(=O)C[C@H](Cc1ccncc1)NC(=O)[C@@H](Cc1cccc(Br)c1)NC(=O)[C@@H](N)Cc1cccc(F)c1
viability (Huh-7-ACE2; CellTiter-Glo; 0.0488 µM, 48 h, unit not given; relative to: DMSO): 1 and 0.985 and 0.971

COc1cc2c(cc1-n1ccnc1)C[C@H]1[C@H]3CCCC[C@@]23CCN1C
inhibition (KCNH2; ligand displacement, radioligand; 10 µM): 39.5%
